Measurements from different studies.
Protocols differ between the studies behind these lines. “And” joins repeats or separate records; there may be more than shown. ± gives the spread as reported.
PHO4: PHO4 1-312 (Saccharomyces cerevisiae, UniProt P07270)
UniProt P07270, sequence (whole entry, looked up): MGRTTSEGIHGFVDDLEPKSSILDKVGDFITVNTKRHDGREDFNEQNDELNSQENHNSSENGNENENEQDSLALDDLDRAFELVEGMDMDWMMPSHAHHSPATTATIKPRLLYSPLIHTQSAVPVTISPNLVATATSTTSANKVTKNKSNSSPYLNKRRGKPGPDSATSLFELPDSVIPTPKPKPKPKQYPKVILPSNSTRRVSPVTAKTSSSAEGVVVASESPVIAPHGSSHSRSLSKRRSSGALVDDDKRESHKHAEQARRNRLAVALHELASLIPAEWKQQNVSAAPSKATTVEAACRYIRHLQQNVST
SPT15 full length assumed: SPT15 full length assumed (Saccharomyces cerevisiae, UniProt P13393)
UniProt P13393, sequence (whole entry, looked up): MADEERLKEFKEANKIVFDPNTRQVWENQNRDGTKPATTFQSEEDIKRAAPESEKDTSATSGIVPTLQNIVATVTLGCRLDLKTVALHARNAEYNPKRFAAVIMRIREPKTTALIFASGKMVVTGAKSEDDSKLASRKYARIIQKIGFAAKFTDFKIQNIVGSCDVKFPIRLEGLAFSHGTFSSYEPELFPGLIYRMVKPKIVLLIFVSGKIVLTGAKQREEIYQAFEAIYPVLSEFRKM
U2AF2: U2AF2 148-342 (Homo sapiens, UniProt P26368)
UniProt P26368, sequence (whole entry, looked up): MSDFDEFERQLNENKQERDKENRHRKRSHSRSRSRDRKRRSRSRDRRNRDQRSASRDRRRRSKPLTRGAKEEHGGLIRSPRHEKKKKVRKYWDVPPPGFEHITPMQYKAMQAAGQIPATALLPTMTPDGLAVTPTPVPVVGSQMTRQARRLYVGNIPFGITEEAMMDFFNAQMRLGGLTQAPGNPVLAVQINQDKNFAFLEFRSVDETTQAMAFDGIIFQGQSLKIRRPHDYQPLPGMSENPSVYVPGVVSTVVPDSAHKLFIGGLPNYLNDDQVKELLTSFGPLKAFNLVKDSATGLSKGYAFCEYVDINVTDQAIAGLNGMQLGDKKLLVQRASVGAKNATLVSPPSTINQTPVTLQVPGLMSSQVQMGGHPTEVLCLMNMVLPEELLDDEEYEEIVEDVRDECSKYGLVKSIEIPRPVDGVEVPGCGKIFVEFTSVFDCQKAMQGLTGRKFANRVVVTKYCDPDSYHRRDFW
CBF1: CBF1 1-351 (Saccharomyces cerevisiae, UniProt P17106)
UniProt P17106, sequence (whole entry, looked up): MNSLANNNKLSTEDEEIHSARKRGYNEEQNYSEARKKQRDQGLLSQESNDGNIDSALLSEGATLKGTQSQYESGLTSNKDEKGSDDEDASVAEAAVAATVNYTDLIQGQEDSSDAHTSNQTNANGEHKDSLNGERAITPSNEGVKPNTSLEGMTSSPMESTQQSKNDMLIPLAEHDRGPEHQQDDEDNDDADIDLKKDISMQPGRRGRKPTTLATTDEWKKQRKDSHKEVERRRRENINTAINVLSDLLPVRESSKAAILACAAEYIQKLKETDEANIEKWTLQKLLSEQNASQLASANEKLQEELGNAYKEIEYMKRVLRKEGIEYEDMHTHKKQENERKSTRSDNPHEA
T1: MUTYH 1-535 (Homo sapiens); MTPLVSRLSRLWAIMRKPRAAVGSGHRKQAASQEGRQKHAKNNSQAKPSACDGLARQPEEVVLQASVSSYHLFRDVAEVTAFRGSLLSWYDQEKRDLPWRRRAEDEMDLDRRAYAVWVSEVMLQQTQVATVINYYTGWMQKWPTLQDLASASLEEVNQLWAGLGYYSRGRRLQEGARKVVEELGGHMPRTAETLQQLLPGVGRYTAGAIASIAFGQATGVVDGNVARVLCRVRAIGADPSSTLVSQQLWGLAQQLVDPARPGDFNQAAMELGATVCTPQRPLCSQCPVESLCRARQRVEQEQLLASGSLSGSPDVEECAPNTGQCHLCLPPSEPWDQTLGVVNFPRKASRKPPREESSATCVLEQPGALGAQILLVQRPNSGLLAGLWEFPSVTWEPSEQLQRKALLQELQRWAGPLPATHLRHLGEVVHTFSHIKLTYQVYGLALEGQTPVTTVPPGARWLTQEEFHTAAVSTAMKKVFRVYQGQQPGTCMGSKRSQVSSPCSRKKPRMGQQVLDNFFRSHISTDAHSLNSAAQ
T2: TOA1/TOA2 1-286; 1-122 (Saccharomyces cerevisiae); chain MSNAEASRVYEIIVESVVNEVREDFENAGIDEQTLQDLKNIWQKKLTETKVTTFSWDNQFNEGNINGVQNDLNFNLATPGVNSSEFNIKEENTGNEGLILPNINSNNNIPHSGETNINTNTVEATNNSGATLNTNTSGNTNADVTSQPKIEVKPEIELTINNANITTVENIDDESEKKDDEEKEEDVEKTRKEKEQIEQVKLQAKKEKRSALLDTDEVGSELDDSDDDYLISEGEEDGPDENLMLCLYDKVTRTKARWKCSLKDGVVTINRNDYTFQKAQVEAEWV; chain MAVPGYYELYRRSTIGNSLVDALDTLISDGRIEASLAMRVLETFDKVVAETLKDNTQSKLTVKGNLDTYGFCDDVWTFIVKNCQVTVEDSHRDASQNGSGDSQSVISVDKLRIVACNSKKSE
UniProt Q47005, sequence (whole entry, looked up): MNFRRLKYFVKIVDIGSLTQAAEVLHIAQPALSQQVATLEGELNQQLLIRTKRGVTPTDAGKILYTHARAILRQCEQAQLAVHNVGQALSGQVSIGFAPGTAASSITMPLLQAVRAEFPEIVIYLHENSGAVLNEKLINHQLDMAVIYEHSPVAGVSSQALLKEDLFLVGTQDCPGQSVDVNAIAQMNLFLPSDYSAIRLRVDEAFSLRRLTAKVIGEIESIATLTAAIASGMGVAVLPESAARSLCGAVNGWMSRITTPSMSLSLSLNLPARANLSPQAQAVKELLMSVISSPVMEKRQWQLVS
UniProt P0ACL9, sequence (whole entry, looked up): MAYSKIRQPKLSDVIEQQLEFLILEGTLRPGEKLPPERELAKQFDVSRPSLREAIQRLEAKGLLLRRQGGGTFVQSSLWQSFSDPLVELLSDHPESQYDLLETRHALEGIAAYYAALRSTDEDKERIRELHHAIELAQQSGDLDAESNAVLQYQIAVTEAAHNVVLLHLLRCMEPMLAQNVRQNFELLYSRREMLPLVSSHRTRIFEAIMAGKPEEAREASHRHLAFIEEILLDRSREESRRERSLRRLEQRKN
UniProt P51116, sequence (whole entry, looked up): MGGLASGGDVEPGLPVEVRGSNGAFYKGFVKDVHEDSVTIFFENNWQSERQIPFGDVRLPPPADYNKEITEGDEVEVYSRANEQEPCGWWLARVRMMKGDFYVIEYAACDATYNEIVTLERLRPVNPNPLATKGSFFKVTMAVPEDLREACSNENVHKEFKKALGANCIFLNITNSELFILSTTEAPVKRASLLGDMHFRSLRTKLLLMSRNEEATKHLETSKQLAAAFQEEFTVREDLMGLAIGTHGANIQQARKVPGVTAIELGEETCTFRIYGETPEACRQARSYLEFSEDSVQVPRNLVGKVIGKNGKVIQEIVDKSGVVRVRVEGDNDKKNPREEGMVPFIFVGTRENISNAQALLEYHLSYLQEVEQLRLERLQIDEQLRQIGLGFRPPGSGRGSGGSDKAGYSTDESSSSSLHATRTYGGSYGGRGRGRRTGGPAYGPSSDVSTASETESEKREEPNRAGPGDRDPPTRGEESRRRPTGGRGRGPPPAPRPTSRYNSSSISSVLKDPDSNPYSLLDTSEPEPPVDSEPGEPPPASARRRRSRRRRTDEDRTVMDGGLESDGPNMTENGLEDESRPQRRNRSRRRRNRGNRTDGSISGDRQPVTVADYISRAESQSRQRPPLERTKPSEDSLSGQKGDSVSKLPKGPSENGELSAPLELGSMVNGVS
UniProt Q9N5M6, sequence (whole entry, looked up): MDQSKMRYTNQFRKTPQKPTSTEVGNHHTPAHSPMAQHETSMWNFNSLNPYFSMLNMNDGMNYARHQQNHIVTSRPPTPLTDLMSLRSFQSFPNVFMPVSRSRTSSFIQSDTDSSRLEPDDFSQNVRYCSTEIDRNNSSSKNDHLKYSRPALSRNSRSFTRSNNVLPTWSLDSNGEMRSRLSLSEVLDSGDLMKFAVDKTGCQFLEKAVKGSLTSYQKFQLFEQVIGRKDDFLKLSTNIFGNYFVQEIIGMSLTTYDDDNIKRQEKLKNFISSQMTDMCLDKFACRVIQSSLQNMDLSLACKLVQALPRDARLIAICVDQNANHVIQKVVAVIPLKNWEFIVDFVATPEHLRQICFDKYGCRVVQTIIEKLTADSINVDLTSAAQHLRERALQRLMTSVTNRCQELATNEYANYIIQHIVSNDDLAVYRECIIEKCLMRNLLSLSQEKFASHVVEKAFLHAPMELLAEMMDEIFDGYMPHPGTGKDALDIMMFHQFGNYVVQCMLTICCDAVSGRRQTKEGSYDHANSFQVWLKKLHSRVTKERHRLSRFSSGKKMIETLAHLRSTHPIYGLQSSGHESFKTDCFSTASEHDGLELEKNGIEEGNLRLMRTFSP
UniProt O95905, sequence (whole entry, looked up): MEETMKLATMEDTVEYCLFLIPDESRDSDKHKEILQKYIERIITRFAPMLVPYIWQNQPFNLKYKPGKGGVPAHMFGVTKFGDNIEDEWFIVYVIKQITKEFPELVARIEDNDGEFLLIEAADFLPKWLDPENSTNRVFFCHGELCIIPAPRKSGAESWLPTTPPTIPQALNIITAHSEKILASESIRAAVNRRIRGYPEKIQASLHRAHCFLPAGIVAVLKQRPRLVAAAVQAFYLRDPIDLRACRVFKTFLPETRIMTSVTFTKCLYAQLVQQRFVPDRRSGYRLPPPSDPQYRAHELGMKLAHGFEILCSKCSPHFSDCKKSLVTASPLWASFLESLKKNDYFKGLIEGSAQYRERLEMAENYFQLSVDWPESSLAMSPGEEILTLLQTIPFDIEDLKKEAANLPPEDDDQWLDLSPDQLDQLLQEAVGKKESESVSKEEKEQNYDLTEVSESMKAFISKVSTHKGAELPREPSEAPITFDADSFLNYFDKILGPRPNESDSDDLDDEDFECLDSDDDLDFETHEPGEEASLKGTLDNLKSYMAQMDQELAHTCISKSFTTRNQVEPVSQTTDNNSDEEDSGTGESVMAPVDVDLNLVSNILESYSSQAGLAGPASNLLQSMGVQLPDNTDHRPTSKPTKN
UniProt P0AFB8, sequence (whole entry, looked up): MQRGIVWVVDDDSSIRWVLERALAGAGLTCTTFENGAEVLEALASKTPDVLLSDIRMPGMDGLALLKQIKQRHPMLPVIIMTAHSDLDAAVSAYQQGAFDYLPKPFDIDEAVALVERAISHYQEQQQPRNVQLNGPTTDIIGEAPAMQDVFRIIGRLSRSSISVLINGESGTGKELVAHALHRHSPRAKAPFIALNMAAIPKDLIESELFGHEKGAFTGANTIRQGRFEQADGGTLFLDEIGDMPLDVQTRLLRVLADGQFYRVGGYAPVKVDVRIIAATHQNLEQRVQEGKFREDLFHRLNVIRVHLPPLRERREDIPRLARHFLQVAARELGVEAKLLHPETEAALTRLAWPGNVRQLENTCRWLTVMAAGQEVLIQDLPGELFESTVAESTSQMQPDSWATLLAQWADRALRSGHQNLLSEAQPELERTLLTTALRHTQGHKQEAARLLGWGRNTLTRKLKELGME
UniProt Q13569, sequence (whole entry, looked up): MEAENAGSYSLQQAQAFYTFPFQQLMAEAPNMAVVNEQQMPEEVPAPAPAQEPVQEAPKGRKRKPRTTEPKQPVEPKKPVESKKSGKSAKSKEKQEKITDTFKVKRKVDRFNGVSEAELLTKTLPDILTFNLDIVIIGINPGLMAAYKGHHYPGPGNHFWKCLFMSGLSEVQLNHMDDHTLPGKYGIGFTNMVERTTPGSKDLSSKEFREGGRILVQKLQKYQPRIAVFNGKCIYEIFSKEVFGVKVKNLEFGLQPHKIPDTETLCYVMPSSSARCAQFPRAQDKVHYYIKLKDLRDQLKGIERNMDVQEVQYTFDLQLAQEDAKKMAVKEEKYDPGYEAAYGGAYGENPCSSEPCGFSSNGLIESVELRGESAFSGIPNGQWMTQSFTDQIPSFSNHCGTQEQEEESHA

Substance = CAATACACTGTTATCAGAGACACGTGTCGAGCTACTCGTTCGGTTATCCGGCGGTATGAC (dsDNA); tested on = PHO4; test = MITOMI; test system = double-stranded DNA, one strand shown; conditions = not purified; quantity = Kd; result = 92 ± 2 nM
Substance = TATTATTGGCACTTCTGTATAACTGGCTTTCATTCTCAAGTCAATCGGTCC (dsDNA; 5'-amino-C6 primer); tested on = SPT15 full length assumed; test = array; test system = double-stranded DNA, one strand shown; conditions = TBP alone; quantity = Kd; result = 1.93 ± 0.12 nM
Substance = GCAUUUCAU (ssRNA); tested on = U2AF2; test = sequencing of bound RNA; test system = RNA; conditions = motif only; quantity = Kd; result = 16100 nM
Substance = ACCAGCCCATATAAATGTCACTGTGCCTCTAACTCTCAAGTCAATCGGTCC (dsDNA; 5'-amino-C6 primer); tested on = SPT15 full length assumed; test = array; test system = double-stranded DNA, one strand shown; conditions = TBP alone; quantity = Kd; result = 2.13 ± 0.14 nM
Substance = CACGUUUUU (ssRNA); tested on = U2AF2; test = sequencing of bound RNA; test system = RNA; conditions = motif only; quantity = Kd; result = 4480 nM
Substance = AUACUCUGGUUUCUCUUCAGAUCGCAUAAAUCUUUCGCCUU (ssRNA); tested on = ECD 1-644 (Homo sapiens, UniProt O95905); test = FP; test system = RNA; quantity = Kd; result = 3400 ± 800 nM
Substance = GGTGAGGGTACTTATGCGGTTGTTTACTTGGGTTGTCAAGTCAATCGGTCC (dsDNA; 5'-amino-C6 primer); tested on = SPT15 full length assumed; test = array; test system = double-stranded DNA, one strand shown; conditions = TBP alone; quantity = Kd; result = 1.94 ± 0.11 nM
Substance = CAATACACTGTTATCAGACACACGTGTCGAGCTACTCGTTCGGTTATCCGGCGGTATGAC (dsDNA); tested on = CBF1; test = MITOMI; test system = double-stranded DNA, one strand shown; conditions = not purified; quantity = Kd; result = 236 ± 16 nM
Substance = DNA TGTGTCACCACTGCTCACGTACAGAGCTG / RNA CAGCUCUGUACGUGAGCAGUGGUGACAC (DNA:RNA hybrid; 5' 1-nt overhang); tested on = TDG 1-410 (Homo sapiens, UniProt Q13569); test = EMSA; test system = DNA-RNA hybrid; quantity = Kd; result = 57 nM
Substance = UUCGUUUUU (ssRNA); tested on = U2AF2; test = sequencing of bound RNA; test system = RNA; conditions = motif only; quantity = Kd; result = 1890 nM
Substance = CAATACACTGTTATCCGACACACGTGTCGAGCTACTCGTTCGGTTATCCGGCGGTATGAC (dsDNA); tested on = PHO4; test = MITOMI; test system = double-stranded DNA, one strand shown; conditions = not purified; quantity = Kd; result = 121 ± 3 nM
Substance = colistin; tested on = Klebsiella pneumoniae; test = broth microdilution; test system = clinical isolate RKI-No_600/16; quantity = MIC; result = 32 mg/L
Substance = CGATCATGGAGCCACGAGCTCCCGTTACAG / CTGTAACGGGAGCTAGTGGCTCCATGATCG (dsDNA; blunt, 8-oxoG:2'-fluoro-arabino-A pair); tested on = T1, MUTYH 1-535 (Homo sapiens); test = EMSA; quantity = Kd; result = 0.2 ± 0.1 nM
Substance = UGUGGCUCC (ssRNA); tested on = U2AF2; test = sequencing of bound RNA; test system = RNA; conditions = motif only; quantity = Kd; result = 4860 nM
Substance = CCACACTGTTACATAAGTTAATCTTAGGTGAAATACCGACTTCATAACTTTTACGCATTAT (dsDNA); tested on = nac full length assumed (Escherichia coli, UniProt Q47005); test = BLI; test system = double-stranded DNA, one strand shown; quantity = Kd; result = 5.78 nM
Substance = CUGACGGAAGUACGUGGAAAGCCGAAAGUGUGUCCCGGUCAG (L-RNA; L-ribonucleotides; 5' DBCO-succinate-aminohexyl); tested on = CXCL8 fragment (Homo sapiens); test = SPR; quantity = Kd; result = 0.22 nM and 0.087 nM
Substance = CGCGTCGACGTGTCTACGTGTGCACGTGTGGACGTGTGTACGTGTTCACGTGTTGCTCCGGCGGTATGAC (dsDNA); tested on = CBF1 full length assumed (Saccharomyces cerevisiae, UniProt P17106); test = MITOMI; test system = double-stranded DNA, one strand shown; conditions = not purified; quantity = Kd; result = 33 ± 3 nM
Substance = CAATACACTGTTATCAGACACACGTGACGAGCTACTCGTTCGGTTATCCGGCGGTATGAC (dsDNA); tested on = PHO4; test = MITOMI; test system = double-stranded DNA, one strand shown; conditions = not purified; quantity = Kd; result = 162 ± 4 nM
Substance = CAACAAAACTTGATTAACATCAATTTTGGTATGACCAATGCACCATTCATGTTATTCTCAA (dsDNA); tested on = pdhR full length assumed (Escherichia coli, UniProt P0ACL9); test = BLI; test system = double-stranded DNA, one strand shown; quantity = Kd; result = 3.5 nM
Substance = AUCAUGUUGCCAUUU (ssRNA); tested on = fbf-1 162-573 (Caenorhabditis elegans, UniProt Q9N5M6); test = EMSA; test system = RNA; quantity = Kd; result = 479 nM
Substance = DNA 1 GATCGATCGATCGAATTCTCGATCGATCGATCGATTCAATTCAATCGGTCC / DNA 2 GGACCGATTGACTTGAATCGATCGATCGATCGAGAATTCGATCGATCGATC (dsDNA; 5'-amino-C6 primer); tested on = SPT15 full length assumed; test = array; test system = double-stranded DNA; conditions = TBP alone; quantity = Kd; result = 2.18 ± 0.2 nM
Substance = CAATACACTGTTATCAGACCCACGTGTCGAGCTACTCGTTCGGTTATCCGGCGGTATGAC (dsDNA); tested on = PHO4; test = MITOMI; test system = double-stranded DNA, one strand shown; conditions = not purified; quantity = Kd; result = 61 ± 1 nM
Substance = AUUCUGAUU (ssRNA); tested on = U2AF2; test = sequencing of bound RNA; test system = RNA; conditions = motif only; quantity = Kd; result = 12100 nM
Substance = ACAGGGGTGTGGGGACAGGGGTGTGGGG (G-quadruplex DNA (Homo sapiens); intramolecular G4); tested on = IGF2 fragment (Homo sapiens); test = SPR; test system = folded DNA; conditions = together with: IGF-2 1-100 pM; quantity = Kd; result = 2 nM
Substance = CAATACACTGTTATCACACACACGTGTCGAGCTACTCGTTCGGTTATCCGGCGGTATGAC (dsDNA); tested on = CBF1; test = MITOMI; test system = double-stranded DNA, one strand shown; conditions = not purified; quantity = Kd; result = 222 ± 17 nM
Substance = AAUUACAUU (ssRNA); tested on = U2AF2; test = sequencing of bound RNA; test system = RNA; conditions = motif only; quantity = Kd; result = 6790 nM
Substance = CAAATGTATGCACCATATCCATTCTAAACATAGTTTCAAGTCAATCGGTCC (dsDNA; 5'-amino-C6 primer); tested on = SPT15 full length assumed; test = array; test system = double-stranded DNA, one strand shown; conditions = TBP alone; quantity = Kd; result = 19.3 ± 1.11 nM
Substance = CAUUUUAGU (ssRNA); tested on = U2AF2; test = sequencing of bound RNA; test system = RNA; conditions = motif only; quantity = Kd; result = 3060 nM
Substance = TCCTGAAGAGGCGCCCTAGCTTGGTCCTATCGTCGTCAAGTCAATCGGTCC (dsDNA; 5'-amino-C6 primer); tested on = SUA7 full length assumed (Saccharomyces cerevisiae, UniProt P29055); test = array; test system = double-stranded DNA, one strand shown; conditions = TFIIB alone; quantity = Kd; result = 5.23 ± 0.94 nM
Substance = CAUCUGACU (ssRNA); tested on = U2AF2; test = sequencing of bound RNA; test system = RNA; conditions = motif only; quantity = Kd; result = 11100 nM
Substance = GTTCCTGAAGGGGGGGCTATAAACGGGGGTGGGGGTCAAGTCAATCGGTCC (dsDNA; 5'-amino-C6 primer); tested on = T2, TOA1/TOA2 1-286; 1-122 (Saccharomyces cerevisiae); test = array; test system = double-stranded DNA, one strand shown; conditions = TFIIA alone; quantity = Kd; result = 14.3 ± 10.4 nM
Substance = GCCCTGACTTTGGGCAGCAATGCTTCAAGTTGGGGCGCTAAAATGGGGCATTGTTTGACGT (dsDNA); tested on = glnG full length assumed (Escherichia coli, UniProt P0AFB8); test = BLI; test system = double-stranded DNA, one strand shown; quantity = Kd; result = 41.4 nM
Substance = CAATACACTGTTATCAGACACACGTGTCGATCTACTCGTTCGGTTATCCGGCGGTATGAC (dsDNA); tested on = CBF1; test = MITOMI; test system = double-stranded DNA, one strand shown; conditions = not purified; quantity = Kd; result = 195 ± 9 nM
Substance = CTCAATCAATTTGTGAAGGTATAACTGTAGCCGTGTCAAGTCAATCGGTCC (dsDNA; blunt; 5'-amino-C6 primer); tested on = SPT15 full length assumed; test = EMSA; test system = double-stranded DNA, one strand shown; quantity = Kd; result = 37 ± 21 nM
Substance = CAATACACTGTTATCAGACGCACGTGTCGAGCTACTCGTTCGGTTATCCGGCGGTATGAC (dsDNA); tested on = CBF1; test = MITOMI; test system = double-stranded DNA, one strand shown; conditions = not purified; quantity = Kd; result = 109 ± 5 nM
Substance = GAUAAAGAUCAUGACAUCGACUACAAGGACGACGACGACAAGGUUGUGGAGCUGAUCGAGAAGCACCACCACCACCACCACAAAGUGGUGAUGAACUAA (RNA; predicted 2-5 helices); tested on = FXR2 full length assumed (Homo sapiens, UniProt P51116); test = fluorescence anisotropy; test system = folded RNA; conditions = together with: tRNA competitor; quantity = Kd; result = 780 ± 380 nM

A few entries again:
Substance = CAATACACTGTTATCAGACCCACGTGTCGAGCTACTCGTTCGGTTATCCGGCGGTATGAC (dsDNA); tested on = PHO4; test = MITOMI; test system = double-stranded DNA, one strand shown; conditions = not purified; quantity = Kd; result = 61 ± 1 nM
Substance = GAUAAAGAUCAUGACAUCGACUACAAGGACGACGACGACAAGGUUGUGGAGCUGAUCGAGAAGCACCACCACCACCACCACAAAGUGGUGAUGAACUAA (RNA; predicted 2-5 helices); tested on = FXR2 full length assumed (Homo sapiens, UniProt P51116); test = fluorescence anisotropy; test system = folded RNA; conditions = together with: tRNA competitor; quantity = Kd; result = 780 ± 380 nM
Substance = CTCAATCAATTTGTGAAGGTATAACTGTAGCCGTGTCAAGTCAATCGGTCC (dsDNA; blunt; 5'-amino-C6 primer); tested on = SPT15 full length assumed; test = EMSA; test system = double-stranded DNA, one strand shown; quantity = Kd; result = 37 ± 21 nM
Substance = CAATACACTGTTATCCGACACACGTGTCGAGCTACTCGTTCGGTTATCCGGCGGTATGAC (dsDNA); tested on = PHO4; test = MITOMI; test system = double-stranded DNA, one strand shown; conditions = not purified; quantity = Kd; result = 121 ± 3 nM
Substance = AUCAUGUUGCCAUUU (ssRNA); tested on = fbf-1 162-573 (Caenorhabditis elegans, UniProt Q9N5M6); test = EMSA; test system = RNA; quantity = Kd; result = 479 nM
Substance = TCCTGAAGAGGCGCCCTAGCTTGGTCCTATCGTCGTCAAGTCAATCGGTCC (dsDNA; 5'-amino-C6 primer); tested on = SUA7 full length assumed (Saccharomyces cerevisiae, UniProt P29055); test = array; test system = double-stranded DNA, one strand shown; conditions = TFIIB alone; quantity = Kd; result = 5.23 ± 0.94 nM
